Results from different studies.
Parts stem from different laboratories: compare values within a part only. Substitutions count along the parent as printed.

Set 1 — method: RNA Bind-n-Seq; molecule type: RNA; medium: in vitro; tested at: 1 µM; notes: whole 134-nt RNA, ends assumed; with: 150 mM KCl; relative to: input library; reading: higher = stronger binding
Target: Ras GTPase-activating protein-binding protein 1, RRM domain (G3BP1, Homo sapiens, UniProt Q13283)
UniProt Q13283, sequence (whole entry, looked up): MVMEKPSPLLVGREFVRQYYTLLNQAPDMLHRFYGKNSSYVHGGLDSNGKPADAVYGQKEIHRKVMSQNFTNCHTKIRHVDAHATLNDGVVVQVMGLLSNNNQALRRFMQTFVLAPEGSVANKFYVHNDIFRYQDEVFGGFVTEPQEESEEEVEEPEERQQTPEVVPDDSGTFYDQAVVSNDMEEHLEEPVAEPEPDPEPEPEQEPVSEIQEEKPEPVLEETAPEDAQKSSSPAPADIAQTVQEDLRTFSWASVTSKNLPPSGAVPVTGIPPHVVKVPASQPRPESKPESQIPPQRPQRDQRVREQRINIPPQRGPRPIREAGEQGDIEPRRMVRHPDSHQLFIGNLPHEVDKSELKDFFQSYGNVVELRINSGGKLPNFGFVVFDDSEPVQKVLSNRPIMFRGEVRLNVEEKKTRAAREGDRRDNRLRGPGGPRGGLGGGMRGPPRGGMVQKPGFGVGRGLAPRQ
Constant ends, left off below: GGGAGUUCUACAGUCCGACGAUC … UGGAAUUCUCGGGUGUCAAGG
`AGUCCUGUGCUACACAUCGUAUGUACCGAAUCGGGUGGGAAAAAAAGGGAAAAAGGGAAAGUAUUAUGUUACGCCGUUCGGAUCUGCACU` has a log2 enrichment of 0.591.
`GUCCUGUGCUACACAUCGUAUGUACCGAAUCGGGCCCCCCGGCCCCCCGGGCCCCCCGGAAAGUAUUAUGUUACGCCGUUCGGAUCUGCA` gave a log2 enrichment of -0.417.
`ACCAUGCAGGUGGGCAUCUUUGGGAAGUGGGGCAAUGGGGGGAUAGGGAGGGGGGUAACACUUUGGGAACAGGUGGUCCCAGGUCGUUUC` has a log2 enrichment of -0.404.
`AAGUCCUGUGCUACACAUCGUAUGUACCGAAUCGGGAAAAAGGGAAAGGGUUUGGGAAAGUAUUAUGUUACGCCGUUCGGAUCUGCACUU` has a log2 enrichment of 0.534.
The log2 enrichment of `CUGUGCUACACAUCGUAUGUACCGAAUCGGGGUUUUUGGGGUUUUUGGGGAAAAAAAGGGGAAAGUAUUAUGUUACGCCGUUCGGAUCUG` is reported as 0.973.
The log2 enrichment of `UCCUGUGCUACACAUCGUAUGUACCGAAUCAAAUUUUUUUAAACCCCCCCAAAUUUAAAAAAGUAUUAUGUUACGCCGUUCGGAUCUGCA` is reported as -0.8.
`CCUGUGCUACACAUCGUAUGUACCGAAUCGGGGUUUGGGGAAAAAAAGGGGAAAAAGGGGAAAGUAUUAUGUUACGCCGUUCGGAUCUGC` gave a log2 enrichment of 0.775.
For `UGGCCCUGGUGGCAUGCGGGGAGGAAGAGGUGGCCUCAUGGAUCGUGGUGGUCCCGGUGGAAUGUUCAGAGGUGGCCGUGGUGGAGACAG`, the log2 enrichment was 1.1.
With `CAAGUCCUGUGCUACACAUCGUAUGUACCGAAUCGGGGCCCGGCCCGGGCCCGGGAAAGUAUUAUGUUACGCCGUUCGGAUCUGCACUUC` the log2 enrichment was -0.592.
`CACAGACAACACGCACCCACACAGACACAGAGGGAAGGGGUUGGGAUGGGGACAGGGUGCACAGCAGGGCGGGGUCGGACCCCAGCCCCU` gave a log2 enrichment of -0.242.
`AAGUCCUGUGCUACACAUCGUAUGUACCGAAUCGGGGCCCCGGCCCCGGGCCCCGGGAAAGUAUUAUGUUACGCCGUUCGGAUCUGCACU` gave a log2 enrichment of -0.91.
`GCAGGAGGUAAAAACAAAUGGAAAUGCUUCGGAUAGUGGCAGGGGUGGGGGUUGCUAAGGAAAGGGUGGGAUGGGAGUGGGUAAAGAGUU` has a log2 enrichment of 1.38.
`CUCAAGUCCUGUGCUACACAUCGUAUGUACCGAAUCGGCCGGGCCGGGCCGGGGAAAGUAUUAUGUUACGCCGUUCGGAUCUGCACUUCC` gave a log2 enrichment of -0.719.
With `CGCAGACAACACGCACCCACACAGACACAGAGGGAAGGGGUUGGGAUGGGGACAGGGUGCACAGCAGGGCGGGGUAGGACCCCAGCCCCU` the log2 enrichment was -0.00805.

Set 2 — method: DHFR PCA, deep sequencing; medium: yeast; with: (+)-ABA 0.11 µM; relative to: wild-type fitted maximum; reading: higher = stronger binding
Target: ABI1, truncated, D143A, DHFR fusion (Arabidopsis thaliana)
Notes: methotrexate growth selection, single substitutions
Parent: PYL1, truncated, DHFR fusion (Arabidopsis thaliana); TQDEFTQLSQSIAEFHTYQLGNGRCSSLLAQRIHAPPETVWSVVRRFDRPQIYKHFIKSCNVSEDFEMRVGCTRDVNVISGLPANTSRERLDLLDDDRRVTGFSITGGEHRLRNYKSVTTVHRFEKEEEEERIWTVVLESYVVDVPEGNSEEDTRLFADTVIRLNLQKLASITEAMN
`S11H`: “relative binding score” 25.5%.
`S117C`: “relative binding score” -2.35%.
`K168L` — result for “relative binding score”: 4.78%.
`S59N` — result for “relative binding score”: 15.6%.
For `Q31I`, “relative binding score” read 2.44%.
For `T135L`, “relative binding score” read -3.67%.
`S26R`: “relative binding score” 1.67%.
`F15I` — result for “relative binding score”: -1.69%.
For `L156N`, “relative binding score” read -0.342%.
For `E130G`, “relative binding score” read 36%.
Under “relative binding score”, `S171L` is recorded as 29.1%.
`A35Y`: “relative binding score” -3.64%.

Set 3 — method: RNA Bind-n-Seq; molecule type: RNA; medium: in vitro; tested at: 365 nM; relative to: no-protein control; reading: higher = stronger binding
Target: RNA binding protein fox-1 homolog 2, RRM domain, GST-SBP tag (RBFOX2, Homo sapiens, UniProt O43251-10, residues 100-194)
Notes: natural RNA segment, single round, ends assumed
Constant ends, left off below: GGGAGUUCUACAGUCCGACGAUC … UGGAAUUCUCGGGUGCCAA
Residues (chain): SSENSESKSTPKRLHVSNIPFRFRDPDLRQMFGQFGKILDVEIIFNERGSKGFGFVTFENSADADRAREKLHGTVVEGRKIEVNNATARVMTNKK
Under “RBNS enrichment (R)”, `GAUUUCCUGAAAAGGGAACACCGGAAUUUGAUUUGUGGCCAAAUUUACUGAGAAAAAGAUGAGGUUCUAAAAUGGUGGUAUGAAGCCCUCUCCCUUCUUUGUAGAAUUAA` is recorded as 0.948.
Under “RBNS enrichment (R)”, `AUGACCUUCACCUCUGGAGAGUAGGGUCUAUGGCGAGGGAAAAGGGUGUUCACCAUGAUAACCUAGUGCCUCCAUAGAGGGGUUUGGAAAAAUUCCAGUCCGAUUUCUUU` is recorded as 0.331.
`CCUCGUAUUGUACAUUUUGGGGAAAGCCUUGUGUGUAAAUCAGUGUAAACUUGGAGGAGAGAUUUUUCUAUCAUGUAGAGUAGGUAUUUUUUAUAGAUUGAAGGUUGAUC`: “RBNS enrichment (R)” 0.702.
`GGAGUUUCAACACCCCUGCUGUCCCUUUAACUUGUAUUGUCCUAGACCCUGUCCUGGAAGUUAGAGGACGUGGGGUAUUUUUUUUUUUGAUCUCUUGCCAGUUGUGAAUA`: “RBNS enrichment (R)” 0.606.
`UUUUUUGUUUUUCAAGAUAGGGUUUCUCUGUGUAGCCCUGGCUGUUCUGGAACUUGCUGUAUAGUCCAGGCUGGCCUCAAACUCAGAGAUCCACCUGCCUCUGCCCCCUG` — result for “RBNS enrichment (R)”: 0.562.
For `AGGAGUCCACAGGGAUAGCUUCCGACAGCUCCAGCGACUCUUCCAGCUCCUCCAGCUCCAGUUCGUCAGACUCCGACUCAGAGUGCGAGUCUGGAUCCGAGGGCGAUGGG`, “RBNS enrichment (R)” read 0.572.
`AGUGCUGCUGGCACGUGGGACGCGGCAGGUGACAGCCGUUCUCAGCAUGUUUUAGAAGCUUGCCUCACAGACUUCCAUGCCUCUCCAUUCAGCCGAUGACUUCAGGGUGU`: “RBNS enrichment (R)” 9.19.
For `AUCAGAAGCUUUUAUUUCUUCUUAUUUUAAUUGUAUCUUAGUUGACUGAAUUUUGGUGAAGUUUUUUUUUUUUUAUGCUAUAUUUCCUGUGUAAUAUUUUGUAAAUCCUU`, “RBNS enrichment (R)” read 2.23.
For `UCUAAGAGUUGAUUGCUGUAUAUUAAAAUUGAACAUCAGAGGAUGGGAAGAGGGCUCUGUAAGCCAGAACCUUACUAAAGUAGAGGGCACAAUCAGUGUGAAUAAAUUCA`, “RBNS enrichment (R)” read 0.81.
For `GUUCUCUCCAGUACCUUAAAUGGUGUUCACCGCUCUGAAGAAGCAUCUCUAUACAGGCAGUUAUUUUAUUUUUAGACUGUGUUAGAAUGUCUGGACUUAGCUUCAAACUC`, “RBNS enrichment (R)” read 0.357.
`AAGGGAAAUGGAGAGAUUUUUCCUUUUAGCUCUGCUGGUCAGAGAUUAAGCCACACCUUUCCAUUUUUCAAUGCUGCAUAUUUAAUCUGCAAAAAAAAGUUAAGCCAUAA` — result for “RBNS enrichment (R)”: 0.351.
For `GCUGUCCUGUGUCGCCAGGUCGAAGAUCACAGUGAGGUAGAGGCCCUGCCCCAUCCCCAGGGCCGCCAGGCUUGCUCCGUUUGCUUUGAGUUUUUAGACCCCAGAGGGAG`, “RBNS enrichment (R)” read 0.534.

Set 4 — method: protein binding microarray; molecule type: double-stranded DNA, one strand shown; medium: in vitro; tested at: not given; relative to: not given; reading: higher = stronger binding
Target: Histone acetyltransferase KAT6A, both winged helices, GST fusion (KAT6A, Homo sapiens, UniProt Q92794, residues 1-181)
Notes: 8-mer, flanks averaged, mean of 2 arrays, mostly near background
Target sequence (chain): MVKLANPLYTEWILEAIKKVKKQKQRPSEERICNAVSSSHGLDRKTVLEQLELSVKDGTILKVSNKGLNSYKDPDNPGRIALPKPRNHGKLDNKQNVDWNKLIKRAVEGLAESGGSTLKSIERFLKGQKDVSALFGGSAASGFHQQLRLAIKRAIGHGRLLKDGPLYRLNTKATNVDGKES
With `GGCACTCA` the E-score was -0.0636.
`AAGCCGCT` gave an E-score of 0.273.
For `CGAGCGGA`, the E-score was 0.246.
`GAGTCACA` gave an E-score of -0.0698.
With `CTTCGAGC` the E-score was 0.139.
`ACAGCTCT` has an E-score of -0.241.
For `AAACGCAA`, the E-score was 0.0853.
`GCTTCCAC` gave an E-score of 0.0622.
The E-score of `GCGAAACA` is reported as 0.126.
The E-score of `CAGTGATC` is reported as -0.0758.
`TCAATCGA` gave an E-score of 0.0452.
`ATCCGGTA` has an E-score of -0.0257.
With `GGCAACTA` the E-score was -0.0739.
With `TAAGCACA` the E-score was 0.0512.
`AAGCGTCC` has an E-score of 0.107.
The E-score of `GGACCGAA` is reported as -0.0883.
The E-score of `ATTCTGCG` is reported as 0.0812.
For `AGAATCAA`, the E-score was -0.149.
For `GAGGGGGA`, the E-score was -0.278.
`ATGATGCA` gave an E-score of -0.149.
`ACCATCCC` has an E-score of -0.149.
`AAATCGGT` has an E-score of 0.00856.

Set 5 — target: CREB5, bZIP domain (human); method: DHFR protein complementation; medium: yeast; relative to: wild-type JUN-FOS pair; reading: higher = stronger binding
Notes: single substitutions, most at no-binding floor
Parent: JUN, bZIP domain (human); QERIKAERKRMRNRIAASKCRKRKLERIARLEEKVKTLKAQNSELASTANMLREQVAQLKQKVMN; partner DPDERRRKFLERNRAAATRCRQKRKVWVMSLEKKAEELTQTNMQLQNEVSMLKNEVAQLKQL
With `L52A` the binding fitness was -1.36 natural log.
`V56G` gave a binding fitness of -1.28 natural log.
For `Q41T`, the binding fitness was -0.546 natural log.
`L31V` has a binding fitness of -0.88 natural log.
`R30T` gave a binding fitness of -0.126 natural log.
For `V35W`, the binding fitness was -1.24 natural log.
For `L52Q`, the binding fitness was -1.45 natural log.
With `A57T` the binding fitness was -0.364 natural log.
With `E54N` the binding fitness was -0.431 natural log.
`E44Y` gave a binding fitness of -0.625 natural log.
`V56W` gave a binding fitness of -0.97 natural log.
The binding fitness of `I28W` is reported as -0.348 natural log.
For `R30C`, the binding fitness was -0.306 natural log.
The binding fitness of `K34H` is reported as -0.183 natural log.
`K34A` has a binding fitness of -0.466 natural log.
`K39R` gave a binding fitness of -0.221 natural log.
With `L38K` the binding fitness was -1.31 natural log.
The binding fitness of `R53W` is reported as -1.26 natural log.
The binding fitness of `S43P` is reported as -1.33 natural log.
The binding fitness of `A49N` is reported as -1.24 natural log.
For `E44R`, the binding fitness was -0.486 natural log.
With `A46V` the binding fitness was -0.245 natural log.
The binding fitness of `L38P` is reported as -1.31 natural log.

For quick reference, copied from above (set 1):
The log2 enrichment of `CUGUGCUACACAUCGUAUGUACCGAAUCGGGGUUUUUGGGGUUUUUGGGGAAAAAAAGGGGAAAGUAUUAUGUUACGCCGUUCGGAUCUG` is reported as 0.973.
The log2 enrichment of `UCCUGUGCUACACAUCGUAUGUACCGAAUCAAAUUUUUUUAAACCCCCCCAAAUUUAAAAAAGUAUUAUGUUACGCCGUUCGGAUCUGCA` is reported as -0.8.
For `UGGCCCUGGUGGCAUGCGGGGAGGAAGAGGUGGCCUCAUGGAUCGUGGUGGUCCCGGUGGAAUGUUCAGAGGUGGCCGUGGUGGAGACAG`, the log2 enrichment was 1.1.
`CUCAAGUCCUGUGCUACACAUCGUAUGUACCGAAUCGGCCGGGCCGGGCCGGGGAAAGUAUUAUGUUACGCCGUUCGGAUCUGCACUUCC` gave a log2 enrichment of -0.719.
`GUCCUGUGCUACACAUCGUAUGUACCGAAUCGGGCCCCCCGGCCCCCCGGGCCCCCCGGAAAGUAUUAUGUUACGCCGUUCGGAUCUGCA` gave a log2 enrichment of -0.417.
`CACAGACAACACGCACCCACACAGACACAGAGGGAAGGGGUUGGGAUGGGGACAGGGUGCACAGCAGGGCGGGGUCGGACCCCAGCCCCU` gave a log2 enrichment of -0.242.
